Results collected from several papers.
Lines come from different studies, so protocols differ. ± gives the spread as reported.
Sequence of UniProt Q9HB29 (whole entry, looked up): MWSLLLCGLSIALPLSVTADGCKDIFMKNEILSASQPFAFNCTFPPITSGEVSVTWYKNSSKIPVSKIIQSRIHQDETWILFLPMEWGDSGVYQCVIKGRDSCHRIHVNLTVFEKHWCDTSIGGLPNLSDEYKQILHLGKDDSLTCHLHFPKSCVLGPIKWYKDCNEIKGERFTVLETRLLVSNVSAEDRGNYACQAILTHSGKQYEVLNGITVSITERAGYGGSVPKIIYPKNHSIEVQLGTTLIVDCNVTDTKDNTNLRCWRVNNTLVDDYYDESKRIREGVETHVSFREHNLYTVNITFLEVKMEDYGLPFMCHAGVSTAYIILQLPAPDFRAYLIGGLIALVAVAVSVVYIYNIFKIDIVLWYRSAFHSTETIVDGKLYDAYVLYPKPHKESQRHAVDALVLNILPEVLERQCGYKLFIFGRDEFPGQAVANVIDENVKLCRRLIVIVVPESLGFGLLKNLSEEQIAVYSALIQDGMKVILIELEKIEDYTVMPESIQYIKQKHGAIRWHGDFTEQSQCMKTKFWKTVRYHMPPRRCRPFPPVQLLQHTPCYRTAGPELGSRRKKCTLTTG
Sequence of UniProt Q13464 (whole entry, looked up): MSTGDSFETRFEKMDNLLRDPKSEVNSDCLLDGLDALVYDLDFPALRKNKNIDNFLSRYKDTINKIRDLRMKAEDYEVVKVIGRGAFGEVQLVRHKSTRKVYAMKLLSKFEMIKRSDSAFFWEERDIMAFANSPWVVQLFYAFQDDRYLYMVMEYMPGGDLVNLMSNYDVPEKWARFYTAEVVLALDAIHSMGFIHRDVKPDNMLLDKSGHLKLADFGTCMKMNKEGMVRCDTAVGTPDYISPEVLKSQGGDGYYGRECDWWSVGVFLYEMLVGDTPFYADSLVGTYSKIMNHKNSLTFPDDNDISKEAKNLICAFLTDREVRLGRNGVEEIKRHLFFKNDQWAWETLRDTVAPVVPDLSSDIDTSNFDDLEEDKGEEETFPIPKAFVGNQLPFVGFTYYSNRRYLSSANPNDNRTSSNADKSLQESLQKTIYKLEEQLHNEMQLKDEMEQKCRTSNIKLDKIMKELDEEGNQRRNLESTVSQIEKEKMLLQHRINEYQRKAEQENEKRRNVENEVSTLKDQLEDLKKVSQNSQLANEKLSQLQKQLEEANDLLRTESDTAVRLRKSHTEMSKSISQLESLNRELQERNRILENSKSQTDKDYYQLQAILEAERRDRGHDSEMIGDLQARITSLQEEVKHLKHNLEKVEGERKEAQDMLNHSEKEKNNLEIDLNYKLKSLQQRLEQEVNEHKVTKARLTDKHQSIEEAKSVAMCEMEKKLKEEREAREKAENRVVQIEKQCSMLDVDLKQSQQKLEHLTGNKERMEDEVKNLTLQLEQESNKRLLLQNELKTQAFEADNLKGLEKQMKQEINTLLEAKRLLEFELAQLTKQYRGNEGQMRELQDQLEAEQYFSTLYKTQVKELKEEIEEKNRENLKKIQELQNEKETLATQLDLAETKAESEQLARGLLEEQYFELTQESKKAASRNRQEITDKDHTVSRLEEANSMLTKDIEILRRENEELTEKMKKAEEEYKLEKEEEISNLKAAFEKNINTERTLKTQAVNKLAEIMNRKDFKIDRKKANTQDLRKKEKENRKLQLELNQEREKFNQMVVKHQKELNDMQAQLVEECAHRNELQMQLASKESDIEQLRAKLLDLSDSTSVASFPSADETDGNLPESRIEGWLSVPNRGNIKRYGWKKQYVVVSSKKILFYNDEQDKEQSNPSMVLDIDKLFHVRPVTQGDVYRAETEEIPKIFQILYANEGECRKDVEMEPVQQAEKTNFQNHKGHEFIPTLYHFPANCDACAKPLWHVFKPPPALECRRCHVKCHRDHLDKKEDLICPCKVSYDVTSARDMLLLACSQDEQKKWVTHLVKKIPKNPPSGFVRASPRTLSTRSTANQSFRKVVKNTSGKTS
Sequence of UniProt P42684 (whole entry, looked up): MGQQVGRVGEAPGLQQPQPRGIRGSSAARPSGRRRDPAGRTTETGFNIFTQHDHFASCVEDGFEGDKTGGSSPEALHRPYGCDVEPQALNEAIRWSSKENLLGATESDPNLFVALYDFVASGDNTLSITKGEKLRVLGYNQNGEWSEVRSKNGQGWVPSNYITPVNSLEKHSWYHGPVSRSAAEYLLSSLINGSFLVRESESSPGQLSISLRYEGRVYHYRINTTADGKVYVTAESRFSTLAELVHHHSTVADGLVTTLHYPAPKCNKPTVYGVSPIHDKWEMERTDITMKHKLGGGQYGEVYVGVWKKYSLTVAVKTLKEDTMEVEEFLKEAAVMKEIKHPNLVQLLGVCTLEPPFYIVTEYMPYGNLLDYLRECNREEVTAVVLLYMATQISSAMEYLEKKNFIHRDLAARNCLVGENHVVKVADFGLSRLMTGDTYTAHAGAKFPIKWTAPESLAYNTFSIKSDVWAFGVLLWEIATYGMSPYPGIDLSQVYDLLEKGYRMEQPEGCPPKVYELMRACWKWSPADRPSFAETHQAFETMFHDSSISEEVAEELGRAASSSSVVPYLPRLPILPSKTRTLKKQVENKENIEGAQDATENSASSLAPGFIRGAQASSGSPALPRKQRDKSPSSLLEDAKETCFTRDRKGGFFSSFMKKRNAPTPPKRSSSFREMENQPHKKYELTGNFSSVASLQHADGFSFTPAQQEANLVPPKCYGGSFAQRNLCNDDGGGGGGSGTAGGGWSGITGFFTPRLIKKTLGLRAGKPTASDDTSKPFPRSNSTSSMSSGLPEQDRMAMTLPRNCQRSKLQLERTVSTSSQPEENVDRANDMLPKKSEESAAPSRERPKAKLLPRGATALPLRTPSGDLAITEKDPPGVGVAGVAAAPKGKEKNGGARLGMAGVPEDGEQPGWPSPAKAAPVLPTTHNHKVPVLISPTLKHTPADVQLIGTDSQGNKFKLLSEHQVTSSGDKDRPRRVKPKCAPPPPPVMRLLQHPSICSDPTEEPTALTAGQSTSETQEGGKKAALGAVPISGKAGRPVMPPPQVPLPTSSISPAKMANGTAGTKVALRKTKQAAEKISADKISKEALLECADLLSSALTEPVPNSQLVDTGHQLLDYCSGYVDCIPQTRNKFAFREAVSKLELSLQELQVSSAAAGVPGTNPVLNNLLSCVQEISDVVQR
Sequence of UniProt P0A6G7 (whole entry, looked up): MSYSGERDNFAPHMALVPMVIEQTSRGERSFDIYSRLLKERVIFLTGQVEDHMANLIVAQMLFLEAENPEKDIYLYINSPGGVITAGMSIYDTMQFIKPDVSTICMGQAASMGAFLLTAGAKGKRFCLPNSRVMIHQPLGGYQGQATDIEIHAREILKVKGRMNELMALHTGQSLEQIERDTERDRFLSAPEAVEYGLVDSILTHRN
Sequence of UniProt A0A0D1DWZ5 (whole entry, looked up): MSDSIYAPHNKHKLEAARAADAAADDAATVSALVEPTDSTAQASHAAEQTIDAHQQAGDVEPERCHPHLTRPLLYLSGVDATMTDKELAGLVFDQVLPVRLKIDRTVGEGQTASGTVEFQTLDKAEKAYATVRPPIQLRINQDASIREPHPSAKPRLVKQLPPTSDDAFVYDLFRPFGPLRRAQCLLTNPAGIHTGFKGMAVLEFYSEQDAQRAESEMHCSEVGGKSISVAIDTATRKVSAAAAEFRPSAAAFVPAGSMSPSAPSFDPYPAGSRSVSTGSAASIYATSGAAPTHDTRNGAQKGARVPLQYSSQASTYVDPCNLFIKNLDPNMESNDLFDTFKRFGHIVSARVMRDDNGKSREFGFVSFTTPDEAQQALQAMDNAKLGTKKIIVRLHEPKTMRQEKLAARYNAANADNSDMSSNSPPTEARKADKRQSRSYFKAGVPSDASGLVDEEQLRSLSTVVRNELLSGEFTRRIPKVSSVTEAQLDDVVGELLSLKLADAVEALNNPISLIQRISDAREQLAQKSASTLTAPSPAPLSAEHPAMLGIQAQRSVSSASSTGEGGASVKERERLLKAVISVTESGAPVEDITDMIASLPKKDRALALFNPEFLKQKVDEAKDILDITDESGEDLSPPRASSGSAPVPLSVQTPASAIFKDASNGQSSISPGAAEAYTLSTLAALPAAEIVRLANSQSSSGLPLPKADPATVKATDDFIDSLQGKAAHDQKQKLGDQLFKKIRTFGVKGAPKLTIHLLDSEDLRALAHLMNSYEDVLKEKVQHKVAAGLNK

CCCC/C=C/C(=O)N[C@@H](Cc1cc(F)cc(F)c1)C(=O)N[C@H]1COC(=O)[C@@H]2CCCN2C(=O)[C@H](C)NC(=O)[C@@H]2C[C@@H](C(C)C)CCN2C(=O)[C@@H]2CCCN2C1=O  Kd (ATP-dependent Clp protease proteolytic subunit (clpP, Escherichia coli, UniProt P0A6G7); peptidase activity, activator; 30 °C, added: fluorogenic decapeptide 15 µM): 7400 ± 310 nM
Nc1ncnc2c1ncn2[C@@H]1O[C@H](C[C@@H](N)CC[C@H](N)C(=O)O)[C@@H](O)[C@H]1O  Kd (O-methyltransferase (Sorghum bicolor, UniProt A0A1B6PFV1, W279A); isothermal titration calorimetry; APO): 884 ± 61.6 nM
CC(C)[C@@H]1NC(=O)[C@H](Cc2ccccc2)NC(=O)CSC[C@@H](C(N)=O)NC(=O)[C@H](CCC(=O)O)NC(=O)[C@H](CO)NC(=O)[C@H](Cc2c[nH]c3ccccc23)NC(=O)[C@H](C(C)C)NC(=O)[C@H](C(C)C)NC(=O)[C@H](Cc2ccc(O)cc2)NC(=O)[C@H](CC(=O)O)NC(=O)[C@H](Cc2c[nH]c3ccccc23)NC(=O)[C@H](Cc2ccc(O)cc2)NC(=O)[C@H](Cc2c[nH]c3ccccc23)NC(=O)[C@H](CCC(=O)O)NC1=O  Kd (Interleukin-1 receptor-like 2, D1-D2 domains (IL1RL2, Homo sapiens, UniProt Q9HB29); SPR; IL-36R domains D1-D2): 1110 ± 86 nM
CC(C)[C@H](NC(=O)[C@H](Cc1ccccc1)NC(=O)[C@H](CC(=O)O)NC(=O)[C@H](CC(=O)O)NC(=O)[C@H](CCC(N)=O)NC(=O)[C@H](CC(=O)O)NC(=O)[C@H](CCC(=O)O)NC(=O)[C@H](CCC(=O)O)NC(=O)[C@H](CCC(N)=O)NC(=O)[C@H](CC(=O)O)NC(=O)[C@H](C)NC(=O)[C@H](C)NC(=O)[C@@H](N)CCC(=O)O)C(=O)N[C@@H](Cc1ccc(O)cc1)C(=O)N1CCC[C@H]1C(=O)NCC(=O)N[C@@H](C)C(=O)N[C@@H](CC(=O)O)C(=O)O  Kd (RNA-binding protein RRM4 (RRM4, Mycosarcoma maydis, UniProt A0A0D1DWZ5); isothermal titration calorimetry; pH 8.0, 25 °C): 12100 nM
CCCc1cc2cc(-n3nc(CC)c4c3CC(C)(C)CC4=O)cc(N3CCC(O)CC3)c2c(=O)[nH]1  Kd (Heat shock protein HSP 90-alpha (HSP90AA1, Homo sapiens, UniProt P07900); fluorescence polarization; 24 h, 4 °C, added: FITC-geldanamycin tracer): 73300 nM
CCCC[C@H](N)C(=O)N[C@H]1CSCCCCCCCCCCSC[C@@H](C(=O)N[C@H](C(N)=O)[C@@H](C)O)NC(=O)[C@H](CCCCN)NC(=O)[C@H](CCCCN)NC(=O)[C@H](CCCCN)NC(=O)[C@H](Cc2ccc(O)cc2)NC(=O)[C@H](CC(N)=O)NC(=O)[C@H](CC(C)C)NC1=O  Kd (GTPase KRas, GMPPNP-bound (KRAS, Homo sapiens, UniProt P01116, C118S/G12V); binding, biolayer interferometry; pH 7.4, 25 °C, GMPPNP-bound form): 80000 nM
CC[C@H](C)[C@H](NC(=O)[C@H](CCC(=O)O)NC(=O)[C@H](CCCNC(=N)N)NC(=O)[C@H](C)NC(=O)[C@H](Cc1c[nH]c2ccccc12)NC(=O)[C@H](CCC(N)=O)NC(=O)[C@H](CCC(=O)O)NC(=O)[C@H](CCC(=O)O)NC(C)=O)C(=O)NCC(=O)N[C@@H](C)C(=O)N[C@@H](CCC(N)=O)C(=O)N[C@@H](CC(C)C)C(=O)N[C@@H](CCCNC(=N)N)C(=O)N[C@@H](CCCNC(=N)N)C(=O)N[C@@H](CCSC)C(=O)N[C@@H](C)C(=O)N[C@@H](CC(=O)O)C(=O)N[C@@H](CC(=O)O)C(=O)N[C@@H](CC(C)C)C(=O)N[C@@H](CC(N)=O)C(=O)N[C@@H](C)C(=O)N[C@@H](CCC(N)=O)C(=O)N[C@@H](Cc1ccc(O)cc1)C(=O)N[C@@H](CCC(=O)O)C(=O)N[C@@H](CCCNC(=N)N)C(N)=O  Kd (Bcl-2-like protein 1, C-terminal truncated (BCL2L1, Homo sapiens, UniProt Q07817); binding, ITC; 25 °C): 3 ± 2 nM
CSCC[C@H](NC(=O)CNC(=O)[C@H](CCCNC(=N)N)NC(=O)[C@H](C)NC(=O)[C@@H](NC(=O)[C@H](CCC(N)=O)NC(=O)[C@H](Cc1ccc(OP(=O)(O)O)cc1)NC(=O)[C@H](C)NC(=O)[C@H](CS)NC(=O)[C@H](CO)NC(=O)[C@@H](NC(=O)[C@H](CC(C)C)NC(=O)[C@H](CC(=O)O)NC(=O)[C@H](CCCCN)NC(=O)[C@H](CO)NC(=O)[C@H](CO)NC(=O)c1ccc2c(c1)C(=O)OC21c2ccc(N(C)C)cc2Oc2cc(N(C)C)ccc21)C(C)C)C(C)C)C(=O)N[C@@H](CCC(=O)O)C(=O)N[C@@H](CC(=O)O)C(=O)O  Kd (Tyrosine-protein kinase ABL2, SH2 domain (ABL2, Homo sapiens, UniProt P42684); binding): 12 nM
C=C1[C@@H](O)C[C@H]2C(C)(C)C[C@H](Br)C[C@]2(C)[C@H]1C[C@H](O)[C@H]1CC(=O)NC1=O  Kd (ribosome, Saccharomyces cerevisiae, 80S, E site; smFRET; pH 7.5, 23 °C, 5 mM MgCl2): 700 ± 250 nM
O=C(N[C@@H]1c2ccccc2C[C@H]1N1CCCC1)c1ccc(-c2ccnc3[nH]ccc23)nc1  Kd (Rho-associated protein kinase 1 (ROCK1, Homo sapiens, UniProt Q13464); binding, competition with immobilised ligand): 5 nM

Some of these lines once more:
O=C(N[C@@H]1c2ccccc2C[C@H]1N1CCCC1)c1ccc(-c2ccnc3[nH]ccc23)nc1  Kd (Rho-associated protein kinase 1 (ROCK1, Homo sapiens, UniProt Q13464); binding, competition with immobilised ligand): 5 nM
